Measured values collected from several papers.
Protocols differ between the studies behind these lines. Several values in a cell are separate wells, animals, samples, runs or records. ± marks the error that the study gave. No end group written: not given here.
B1: bicyclic; chain AATCHCRRSCYSTEYSYGTCTVMGINHRFCCL (also: bicyclic or more (positions not given here))
UniProt Q9UNQ0, sequence (whole entry, looked up): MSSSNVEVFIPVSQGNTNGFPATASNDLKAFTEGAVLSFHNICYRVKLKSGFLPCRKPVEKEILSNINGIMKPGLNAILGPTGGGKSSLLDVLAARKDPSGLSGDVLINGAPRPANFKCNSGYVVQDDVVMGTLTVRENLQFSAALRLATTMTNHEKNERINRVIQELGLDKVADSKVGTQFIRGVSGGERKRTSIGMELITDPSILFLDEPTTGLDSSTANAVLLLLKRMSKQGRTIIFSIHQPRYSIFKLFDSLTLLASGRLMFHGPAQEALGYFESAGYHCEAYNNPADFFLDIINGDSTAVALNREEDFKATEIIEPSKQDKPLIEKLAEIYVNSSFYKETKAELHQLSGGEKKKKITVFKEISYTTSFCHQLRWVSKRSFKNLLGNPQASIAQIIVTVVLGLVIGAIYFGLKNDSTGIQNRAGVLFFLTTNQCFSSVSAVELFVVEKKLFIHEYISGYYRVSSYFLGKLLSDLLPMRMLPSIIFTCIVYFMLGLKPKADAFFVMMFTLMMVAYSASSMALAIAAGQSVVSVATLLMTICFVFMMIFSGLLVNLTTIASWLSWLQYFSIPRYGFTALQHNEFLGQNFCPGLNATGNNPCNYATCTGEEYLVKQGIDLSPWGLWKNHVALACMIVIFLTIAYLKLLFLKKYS

Molecule | tested on | test | test system | setting | scale | quantity | value
Teicoplanin | – | – | human serum QC samples | 2-6 °C | – | stability time | ≤ 7 days
Lucifer yellow | ABCG2 (Homo sapiens, UniProt Q9UNQ0) | substrate | – | together with: ATP | – | uptake rate | 225 ± 13.8 pmol/min/mg
caspofungin | – | – | adult ICU patients, mITT, serum | dose not given, day 30 | – | potassium | 4.1 mmol/L
FNA / CGLSGLGVA-NH2 ([18F]FNA-labelled, C-amide) | – | gamma counting | peptide, glioblastoma mice, brown adipose tissue | 60 min | – | tissue uptake | 0.25 %ID/g
regorafenib N-β-glucuronide | – | – | wild-type mouse, plasma | oral, 10 mg/kg of regorafenib, single dose | – | Cmax | 35.5 ± 5.97 ng/mL
Rilpivirine docusate | – | – | Capryol 90 | mean of three | – | kinetic solubility | ~300 mg/mL
LVHYTHCGSLGV | Epstein-Barr virus | – | peptide, EBV-infected humanized B-NDG mice | 20 mg/kg, day 14 | – | body weight | 24.4 g and 22.3 g and 22.8 g
GSGAGQITKV | human MAGI1-3/6 PDZ construct (MBP fusion) | automated holdup | peptide, crude extract | concentration not given, corrected by standard peak, unit not given | relative to: biotin control resin, higher = stronger binding | binding intensity | 0.227
colistin | Escherichia coli | broth microdilution | clinical isolate RKI-No 131/08 | – | – | MIC | 0.5 mg/L
QGRWDHETIV | human MAGI1-3/6 PDZ construct (MBP fusion) | automated holdup | peptide, crude extract | concentration not given, uncorrected, unit not given | relative to: biotin control resin, higher = stronger binding | binding intensity | 0.235
B1 | – | sedimentation velocity ultracentrifugation | 10 mM Tris-maleate | 50 µM, pH 6.4, 20 °C | – | sedimentation coefficient s20,w | 0.762 S

Some of these lines once more:
Molecule | tested on | test | test system | setting | scale | quantity | value
Teicoplanin | – | – | human serum QC samples | 2-6 °C | – | stability time | ≤ 7 days
